Published values collected from several papers.
Each numbered part is a random draw from the data of one study; scales do not carry over between parts. Positions count from the first letter of the parent shown.

Block 1 — method: protein binding microarray; form: double-stranded DNA, one strand shown; medium: in vitro; tested at: not given; baseline: not given; direction: higher = stronger binding; endpoint: E-score
Target: Histone acetyltransferase KAT6A, winged helix 2, GST fusion (KAT6A, Homo sapiens, UniProt Q92794, residues 85-181)
Notes: 8-mer, flanks averaged, mean of 2 arrays, mostly near background
Residues (chain): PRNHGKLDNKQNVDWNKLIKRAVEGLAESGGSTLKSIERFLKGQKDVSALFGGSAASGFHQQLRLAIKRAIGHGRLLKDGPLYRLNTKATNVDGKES
ATGGGAGA: -0.224
AAGTCAGG: 0.0754
CTGCTTCC: 0.0954
CCGCCACA: 0.0387
AGTGACCC: -0.062
ATGTTGCA: -0.0932
CAGCATCC: -0.0115
ATAGCAGC: 0.0359
AAAAGTAG: -0.0972
GAAGCCGC: 0.223
GTAGAAAA: 0.114
GCGTTCAA: 0.0709
CATGTACG: -0.14
AATGACCA: -0.0565
TCGTCCAA: -0.0423
GGGCCGGA: 0.135
GTCTGCAC: -0.144
AACAATTG: -0.0302
CAGGTCTC: -0.117
GGATTCAC: 0.0434
ACGATGAC: 0.0104
CCACGTAG: -0.274
CCCCGACG: 0.0679
ACATTGGA: -0.161
CTCAGAAG: 0.0893

Block 2 — method: RNA Bind-n-Seq; form: RNA; medium: in vitro; tested at: 365 nM; baseline: no-protein control; direction: higher = stronger binding; endpoint: RBNS enrichment (R)
Target: RNA binding protein fox-1 homolog 2, RRM domain, GST-SBP tag (RBFOX2, Homo sapiens, UniProt O43251-10, residues 100-194)
Notes: natural RNA segment, single round, ends assumed
Construct (chain): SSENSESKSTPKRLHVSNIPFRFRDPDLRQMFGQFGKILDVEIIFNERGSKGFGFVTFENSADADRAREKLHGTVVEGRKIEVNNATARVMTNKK
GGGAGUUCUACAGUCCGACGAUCCCCUUUCUCUUCACUGUCAUGGUGCGAGAAAAGCAUGCCAUGUCUACGAGUAGGAUCUCUUCACGGAGGACCUGCAGCUUCAUCUUCUGGAUUGGAGAUUAUUCUUGGUUUGGAAUUCUCGGGUGCCAA: 1.6
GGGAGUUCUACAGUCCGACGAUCUGGGUAAUGAGCAAAACCGAAAGCUCGGUGUGACUCAGUUUCCUCACUCCCAUUUUGCUUUAAUUUCACUUCCUUCACCAAUUUUCCGAUUGCAUUUAUUAAGCAUCUUUUGGAAUUCUCGGGUGCCAA: 2.02
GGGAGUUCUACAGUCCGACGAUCAUUUUUCUACUUUCUUUUUGCUGUUGAUGAAUUGUUUCAUUAUUAAAUAUAUGCAUGUAUCAAAGCUUUCAUACUCCAUGUGUCAUUUCUAAUUGUAUCCCAAACAUUAGUGGAAUUCUCGGGUGCCAA: 2.4
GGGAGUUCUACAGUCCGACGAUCUGUUACAAUACUGCUGCUUUGAGCAAUUUUGUUUCUCUUCAUUGUCUGUUAGGGAAAUCACCAGCUUUGGCAUCUUAACAACAAACAGUGGAUGGGUAAUUUUUAUUUCUUGGAAUUCUCGGGUGCCAA: 0.383
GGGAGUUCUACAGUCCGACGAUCAACUACUAGUUAACAUCAUGCUUGAUCAACAUUUGCUCCUAGUUAUCACCAUUAAAUUAAGACCUUAAUGGUAAACUGAGGUUACUGAUGCAUCAUCACAUUUAAGUAAAUGGAAUUCUCGGGUGCCAA: 0.522
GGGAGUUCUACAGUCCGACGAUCAUUUGGUUUUACUUGUUGAUUUUGAGCCUUAUUGUCACAAAACAGCCUAGCUGGAAUAUUGAUGCCAUACUAUAUUUUGCAUGCUAUUUUCUUCCCUAGAGGCAUUGAGGUGGAAUUCUCGGGUGCCAA: 1.81
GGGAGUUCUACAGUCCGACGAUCGUGUACUGUUGAAAGCAUUGUUCUUCAGGGCCCUUGUCCAACAGUGGCCCGUGCAGUCUGGGGUCCACAGCUCUUCCUCUCCUUCCUGUGCUCCCUGCCUUGCCUAGGAUUGGAAUUCUCGGGUGCCAA: 0.807
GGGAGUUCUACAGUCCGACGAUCAACCUUUGCUUCGACAGGUCUUCACUCACGAUUUAUUCCUCCAGGUCUUUGAUUGGAGAGAGUAACUUUUUAAUUCUGUUGUUUUGCAGUUUGGCUCUGUAGGAGUGAGUUGGAAUUCUCGGGUGCCAA: 0.332
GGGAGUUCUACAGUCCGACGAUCGGUUGACCUAAAAUUAGCCUUACAAAGGAGAAAGGACCACAUUGCUUACUUGAAACAGACAAUGAAAACAACCAAAGUGAUAUAUAAAAUAGUUGAUGAGAACUAGACUUUGGAAUUCUCGGGUGCCAA: 2.19
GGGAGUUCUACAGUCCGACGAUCGGGGUUUUCUAGAUAUACAAUCAUGUCGUCUGCAAACGGACAAUUUGACUUCCUCUUUUCCUAAUUGAAUACCCUUUAUUUCCUUCUCCUGCCUAAUUGCCCUGGCCAGAUGGAAUUCUCGGGUGCCAA: 0.649
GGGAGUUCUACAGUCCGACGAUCACAUCAGCACUGCCAACUCGGCUGCAAUUGUGGACCUUCCCUACCAAAGGGAGUGUUGAAACUCAAGUCCCGCCCUGGCUCUUUAGAAUGGACCACUGAGAGCCACAGGAUGGAAUUCUCGGGUGCCAA: 0.287
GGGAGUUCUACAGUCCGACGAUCUCAAUGCUGUACAUCCAUCCAGUUAGUGUAACUGAAGGGAAAUGUAACUUUGUGCUGAGUUAGACAUCUGUAUUGUCAGUGAUUCUUGUAGAAUAUGUGCUCAGAUCUGAUGGAAUUCUCGGGUGCCAA: 0.334

Block 3 — target: CCNB2, cyclin fold, Cln2 fusion (human); method: yeast growth competition, sequencing; medium: yeast; notes: weak parent motif; baseline: not given; direction: higher = stronger binding; endpoint: normalised enrichment score
Parent: WEE1 docking peptide (human); HKTFRKLRLFDTP; partner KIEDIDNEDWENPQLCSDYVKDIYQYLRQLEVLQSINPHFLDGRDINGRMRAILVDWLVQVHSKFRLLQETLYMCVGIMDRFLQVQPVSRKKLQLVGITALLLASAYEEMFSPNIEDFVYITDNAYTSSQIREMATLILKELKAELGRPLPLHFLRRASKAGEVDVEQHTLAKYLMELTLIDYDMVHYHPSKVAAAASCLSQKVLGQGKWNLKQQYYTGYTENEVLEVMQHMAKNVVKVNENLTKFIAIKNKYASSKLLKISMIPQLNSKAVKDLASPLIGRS
WKTFRKLRLFDTP [H1W]: 0.922
HKTFRKLRLFDGP [T12G]: 1.29
HKTDRKLRLFDTP [F4D]: 0.379
HKTFAKLRLFDTP [R5A]: -0.57
HCTFRKLRLFDTP [K2C]: 0.22
HKTFRKLRLFDTD [P13D]: 0.664
HKTFRKLRLFDHP [T12H]: 0.36
HKTFRKLRLEDTP [F10E]: 0.273
HTTFRKLRLFDTP [K2T]: 1.17
HKTFRKLRPFDTP [L9P]: 0.435
HKTFRGLRLFDTP [K6G]: 0.427
HKTFRKLRLFWTP [D11W]: 0.21
HKTFRKLDLFDTP [R8D]: 0.309
HKTFVKLRLFDTP [R5V]: -0.348
HKTFRKLRLYDTP [F10Y]: 0.319
HKTFRKLRLFDTC [P13C]: 0.826
HKTFRKLRLFHTP [D11H]: -0.45
HKTFRKLRLLDTP [F10L]: 0.282

Block 4 — method: EMSA with sequencing; form: double-stranded DNA, one strand shown; medium: in vitro; tested at: 10 and 20 nM; baseline: negative control set to 0; direction: higher = stronger binding; endpoint: normalised bound fraction
Target: Hepatocyte nuclear factor 3-alpha (Foxa1, Mus musculus, UniProt P35582, residues 1-468, full length assumed)
UniProt P35582, sequence (whole entry, looked up): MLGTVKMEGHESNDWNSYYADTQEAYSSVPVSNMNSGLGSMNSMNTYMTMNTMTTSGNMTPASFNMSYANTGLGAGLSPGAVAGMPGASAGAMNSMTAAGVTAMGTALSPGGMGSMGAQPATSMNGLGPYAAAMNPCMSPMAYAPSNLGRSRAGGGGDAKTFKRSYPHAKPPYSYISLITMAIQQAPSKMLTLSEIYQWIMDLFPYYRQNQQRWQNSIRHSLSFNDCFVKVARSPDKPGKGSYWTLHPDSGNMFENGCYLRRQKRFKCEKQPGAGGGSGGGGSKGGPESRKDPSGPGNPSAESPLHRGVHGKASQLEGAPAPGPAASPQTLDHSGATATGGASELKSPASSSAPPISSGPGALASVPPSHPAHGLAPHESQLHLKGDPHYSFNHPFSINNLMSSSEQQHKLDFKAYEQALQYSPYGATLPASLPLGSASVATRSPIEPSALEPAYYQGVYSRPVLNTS
Notes: whole designed probe, mean of two concentrations, ends assumed
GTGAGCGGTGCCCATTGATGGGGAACTCCTGCTTCTGTTGGCTGTTTCTTCTCTTTGGAGGGGGTCCCATTTCCCCACCTCTTTGCATACGCTGTAATGTTTTGTTGGATACTGCATGTAGATTATTTAGAGCAGCAGTTCAGACTGAAGTAGGAGCTGTCATCCTGGAGGGGCTCCCTGCCTGTGTTGGGCATGTGGGGGGCTGCTCAGCCAGATCCATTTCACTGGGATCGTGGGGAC: -0.0621 ratio
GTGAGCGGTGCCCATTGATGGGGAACAGACTGGCTGCCCGGCTGGAAGGTGGGGCCCTGGCACGCGAGGACCTCATGTGTGGAGGCACTGGCTTGGGGGGTGCTCCCAGTGGCTCTAGAGTCATCTTGACAGGCATCGAATGGCTCCTGTTTCTCTGGCAGAGTTGGGGCAGAGCCAGGCTTGGCCACGCTGGGCTCTAAGGGGCTGTCATTTTGCCCATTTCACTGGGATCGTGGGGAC: -0.0905 ratio
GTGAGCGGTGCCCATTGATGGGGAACTCCTGGCAGCACAAACGACTGAATAACAATTAAACAAAACAGGACAGTCTCCGTGTTTCAAAATGCGCATTTAAACCTAAAAGAAACACGGTGAGATTACTTTCTGAGCCTGGCCTTCCCTGGGTGCACAGTGAGCCACTTCTGAAAGCGTATGGGCACACCCGCTACAGAAACCAGCTTACACTGGCTCGGTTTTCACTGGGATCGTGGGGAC: 0.0273 ratio
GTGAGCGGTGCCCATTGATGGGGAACATCTTCCCCCTCTTCCTTGCCCCACCAGCTCACCTTCCCGGGTATCTGCAAATAAGTATTTATTTTCAAGCCGGCATTCGTTAACCCTCTTCACGCGCATACTGCCAAAGTAAACAGATGAATCATGGTCCTTTGGCGACGCCAGGCTCCGGGAGAGCAAAGCACCGTGTCAGGGCCATGATCCGGGGTGGCCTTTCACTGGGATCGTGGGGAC: 0.449 ratio
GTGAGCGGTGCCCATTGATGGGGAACGCCTGGAAGAAAGGGGCTGTTTTCCTTTTCACTATTATTATTTTAAACTTTGATGGGCTGCTGACGTCAGCAAATATGCTTGACGCCTGTAAAGCAAATAAGCCACATCACAAGCAGAAAGCCTGTGGGATTTTCTGGTGCCCTATTTCTAGAACCTTCCCTGTTCTGACCATTTGAAGGTGCTTATTTAGTCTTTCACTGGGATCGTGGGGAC: 0.308 ratio
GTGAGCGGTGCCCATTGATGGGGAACATCTTCCCCCTCTTCCTTGCCCCACCAGCTCACCTTCCCGGGTTGTTTACTTTGAGCAAAGTAAACAAAGCCGGCATTCGTTAACCCTCTTCACGCGCATACTGCCAAAGTAAACAGATGAATCATGGTCCTTTGGCGACGCCAGGCTCCGGGAGAGCAAAGCACCGTGTCAGGGCCATGATCCGGGGTGGCCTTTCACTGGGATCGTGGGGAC: 0.569 ratio
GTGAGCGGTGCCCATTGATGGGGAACAAAGGGTATTGTTTCAAAGCAGGGCTAGCAGAAGGCAGTAGACAGAGGGTGTTCGCTGTCAGAGTCTGGGGCGCTGCTGCAGGCTCACCTGGCAGAGTACTCTGCTCCCATTCACCTAGTGAAATCGTGTAAATAATGAAGTGCACACATTGCATAACAAACAGGAACTCTTCTGATCCAAAGAGGTGGCATTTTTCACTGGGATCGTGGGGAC: 0.246 ratio
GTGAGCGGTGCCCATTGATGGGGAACTTATGATCTGAGTATATATAGTAAGTACCTCCCCTTTCAGGGTAAGGCAGTAGGTAATGGTGAACAGCGTAGCAAAAGGTGACTCAGGTTGAGTAAACAACACCAAGCATATCTGACTCAAGGAATGCTTCAGAGGCCAGGGGTGCATGCCTGTAATCCCAGCACCTTGGAAGGCTGACACAGGAGGATCACTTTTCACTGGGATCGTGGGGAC: 0.39 ratio

Some of these lines once more (block 1):
CCACGTAG: -0.274
CAGGTCTC: -0.117
GTCTGCAC: -0.144
CATGTACG: -0.14
GGATTCAC: 0.0434
ATAGCAGC: 0.0359
